Assay results of several laboratories.
A part holds a random share of what one study measured. “And” joins repeats or separate records; there may be more than shown.
UniProt P21918, sequence (whole entry, looked up): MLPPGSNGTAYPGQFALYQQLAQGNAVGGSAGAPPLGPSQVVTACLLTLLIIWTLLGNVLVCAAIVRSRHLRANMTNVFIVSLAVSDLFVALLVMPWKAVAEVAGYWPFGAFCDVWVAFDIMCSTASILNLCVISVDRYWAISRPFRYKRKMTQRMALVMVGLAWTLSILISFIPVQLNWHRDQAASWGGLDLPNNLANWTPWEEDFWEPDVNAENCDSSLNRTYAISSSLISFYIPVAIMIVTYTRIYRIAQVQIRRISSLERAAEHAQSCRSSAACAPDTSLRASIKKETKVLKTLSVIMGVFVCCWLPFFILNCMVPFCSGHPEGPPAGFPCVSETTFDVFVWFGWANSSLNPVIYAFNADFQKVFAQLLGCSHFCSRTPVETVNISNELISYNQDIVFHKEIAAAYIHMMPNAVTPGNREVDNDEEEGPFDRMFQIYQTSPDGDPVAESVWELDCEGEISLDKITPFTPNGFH
UniProt P31645, sequence (whole entry, looked up): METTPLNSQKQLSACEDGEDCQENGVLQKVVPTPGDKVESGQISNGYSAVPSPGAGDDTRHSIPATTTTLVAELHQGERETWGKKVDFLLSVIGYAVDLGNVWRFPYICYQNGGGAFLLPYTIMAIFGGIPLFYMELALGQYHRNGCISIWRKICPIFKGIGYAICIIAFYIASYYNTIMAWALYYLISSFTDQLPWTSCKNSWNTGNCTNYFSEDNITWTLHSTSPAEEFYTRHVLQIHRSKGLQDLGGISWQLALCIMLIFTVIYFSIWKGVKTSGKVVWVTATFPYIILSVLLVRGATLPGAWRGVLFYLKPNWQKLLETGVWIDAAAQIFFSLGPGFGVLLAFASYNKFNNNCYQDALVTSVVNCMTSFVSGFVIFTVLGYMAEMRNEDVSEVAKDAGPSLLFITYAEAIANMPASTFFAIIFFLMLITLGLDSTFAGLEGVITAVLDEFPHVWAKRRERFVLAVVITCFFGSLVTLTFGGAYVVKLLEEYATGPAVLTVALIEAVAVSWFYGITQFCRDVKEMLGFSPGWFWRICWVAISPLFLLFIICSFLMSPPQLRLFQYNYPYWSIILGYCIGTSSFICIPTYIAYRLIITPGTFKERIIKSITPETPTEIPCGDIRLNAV
UniProt P20309, sequence (whole entry, looked up): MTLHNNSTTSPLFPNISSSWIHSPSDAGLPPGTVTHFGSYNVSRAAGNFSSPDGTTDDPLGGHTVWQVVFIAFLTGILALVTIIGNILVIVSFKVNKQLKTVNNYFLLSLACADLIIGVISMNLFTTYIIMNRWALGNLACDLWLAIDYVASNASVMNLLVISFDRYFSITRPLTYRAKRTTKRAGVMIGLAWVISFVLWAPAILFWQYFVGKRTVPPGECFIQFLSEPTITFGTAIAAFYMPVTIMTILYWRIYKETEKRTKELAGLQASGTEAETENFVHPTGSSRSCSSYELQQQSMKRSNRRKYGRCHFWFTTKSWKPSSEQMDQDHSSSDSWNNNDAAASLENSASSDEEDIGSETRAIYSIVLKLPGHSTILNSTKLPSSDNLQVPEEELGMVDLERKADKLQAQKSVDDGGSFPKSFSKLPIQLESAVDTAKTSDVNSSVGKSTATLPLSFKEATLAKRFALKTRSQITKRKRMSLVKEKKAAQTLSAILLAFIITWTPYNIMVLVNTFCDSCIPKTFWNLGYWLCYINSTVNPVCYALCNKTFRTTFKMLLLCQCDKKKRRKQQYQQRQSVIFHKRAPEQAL
UniProt P23975, sequence (whole entry, looked up): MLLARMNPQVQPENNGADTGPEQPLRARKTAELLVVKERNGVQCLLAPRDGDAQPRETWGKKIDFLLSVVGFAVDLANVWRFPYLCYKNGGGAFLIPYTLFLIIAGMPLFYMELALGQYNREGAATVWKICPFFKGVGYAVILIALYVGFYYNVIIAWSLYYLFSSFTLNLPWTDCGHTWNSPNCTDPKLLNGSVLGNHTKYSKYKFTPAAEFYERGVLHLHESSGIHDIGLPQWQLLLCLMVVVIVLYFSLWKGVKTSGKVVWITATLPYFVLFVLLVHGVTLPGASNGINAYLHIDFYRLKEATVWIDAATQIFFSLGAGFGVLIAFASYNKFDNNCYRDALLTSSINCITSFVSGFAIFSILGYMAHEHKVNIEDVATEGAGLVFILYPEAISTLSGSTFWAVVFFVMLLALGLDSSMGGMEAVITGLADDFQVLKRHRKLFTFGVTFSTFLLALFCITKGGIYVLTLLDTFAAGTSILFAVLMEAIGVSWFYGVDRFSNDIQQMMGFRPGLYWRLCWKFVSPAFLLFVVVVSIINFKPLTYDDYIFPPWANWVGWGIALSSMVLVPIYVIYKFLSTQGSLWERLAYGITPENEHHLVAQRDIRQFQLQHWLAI

Study 1
Target: DNA polymerase theta, ATPase domain (POLQ, Homo sapiens, UniProt O75417)
UniProt O75417, sequence (whole entry, unmodified, looked up): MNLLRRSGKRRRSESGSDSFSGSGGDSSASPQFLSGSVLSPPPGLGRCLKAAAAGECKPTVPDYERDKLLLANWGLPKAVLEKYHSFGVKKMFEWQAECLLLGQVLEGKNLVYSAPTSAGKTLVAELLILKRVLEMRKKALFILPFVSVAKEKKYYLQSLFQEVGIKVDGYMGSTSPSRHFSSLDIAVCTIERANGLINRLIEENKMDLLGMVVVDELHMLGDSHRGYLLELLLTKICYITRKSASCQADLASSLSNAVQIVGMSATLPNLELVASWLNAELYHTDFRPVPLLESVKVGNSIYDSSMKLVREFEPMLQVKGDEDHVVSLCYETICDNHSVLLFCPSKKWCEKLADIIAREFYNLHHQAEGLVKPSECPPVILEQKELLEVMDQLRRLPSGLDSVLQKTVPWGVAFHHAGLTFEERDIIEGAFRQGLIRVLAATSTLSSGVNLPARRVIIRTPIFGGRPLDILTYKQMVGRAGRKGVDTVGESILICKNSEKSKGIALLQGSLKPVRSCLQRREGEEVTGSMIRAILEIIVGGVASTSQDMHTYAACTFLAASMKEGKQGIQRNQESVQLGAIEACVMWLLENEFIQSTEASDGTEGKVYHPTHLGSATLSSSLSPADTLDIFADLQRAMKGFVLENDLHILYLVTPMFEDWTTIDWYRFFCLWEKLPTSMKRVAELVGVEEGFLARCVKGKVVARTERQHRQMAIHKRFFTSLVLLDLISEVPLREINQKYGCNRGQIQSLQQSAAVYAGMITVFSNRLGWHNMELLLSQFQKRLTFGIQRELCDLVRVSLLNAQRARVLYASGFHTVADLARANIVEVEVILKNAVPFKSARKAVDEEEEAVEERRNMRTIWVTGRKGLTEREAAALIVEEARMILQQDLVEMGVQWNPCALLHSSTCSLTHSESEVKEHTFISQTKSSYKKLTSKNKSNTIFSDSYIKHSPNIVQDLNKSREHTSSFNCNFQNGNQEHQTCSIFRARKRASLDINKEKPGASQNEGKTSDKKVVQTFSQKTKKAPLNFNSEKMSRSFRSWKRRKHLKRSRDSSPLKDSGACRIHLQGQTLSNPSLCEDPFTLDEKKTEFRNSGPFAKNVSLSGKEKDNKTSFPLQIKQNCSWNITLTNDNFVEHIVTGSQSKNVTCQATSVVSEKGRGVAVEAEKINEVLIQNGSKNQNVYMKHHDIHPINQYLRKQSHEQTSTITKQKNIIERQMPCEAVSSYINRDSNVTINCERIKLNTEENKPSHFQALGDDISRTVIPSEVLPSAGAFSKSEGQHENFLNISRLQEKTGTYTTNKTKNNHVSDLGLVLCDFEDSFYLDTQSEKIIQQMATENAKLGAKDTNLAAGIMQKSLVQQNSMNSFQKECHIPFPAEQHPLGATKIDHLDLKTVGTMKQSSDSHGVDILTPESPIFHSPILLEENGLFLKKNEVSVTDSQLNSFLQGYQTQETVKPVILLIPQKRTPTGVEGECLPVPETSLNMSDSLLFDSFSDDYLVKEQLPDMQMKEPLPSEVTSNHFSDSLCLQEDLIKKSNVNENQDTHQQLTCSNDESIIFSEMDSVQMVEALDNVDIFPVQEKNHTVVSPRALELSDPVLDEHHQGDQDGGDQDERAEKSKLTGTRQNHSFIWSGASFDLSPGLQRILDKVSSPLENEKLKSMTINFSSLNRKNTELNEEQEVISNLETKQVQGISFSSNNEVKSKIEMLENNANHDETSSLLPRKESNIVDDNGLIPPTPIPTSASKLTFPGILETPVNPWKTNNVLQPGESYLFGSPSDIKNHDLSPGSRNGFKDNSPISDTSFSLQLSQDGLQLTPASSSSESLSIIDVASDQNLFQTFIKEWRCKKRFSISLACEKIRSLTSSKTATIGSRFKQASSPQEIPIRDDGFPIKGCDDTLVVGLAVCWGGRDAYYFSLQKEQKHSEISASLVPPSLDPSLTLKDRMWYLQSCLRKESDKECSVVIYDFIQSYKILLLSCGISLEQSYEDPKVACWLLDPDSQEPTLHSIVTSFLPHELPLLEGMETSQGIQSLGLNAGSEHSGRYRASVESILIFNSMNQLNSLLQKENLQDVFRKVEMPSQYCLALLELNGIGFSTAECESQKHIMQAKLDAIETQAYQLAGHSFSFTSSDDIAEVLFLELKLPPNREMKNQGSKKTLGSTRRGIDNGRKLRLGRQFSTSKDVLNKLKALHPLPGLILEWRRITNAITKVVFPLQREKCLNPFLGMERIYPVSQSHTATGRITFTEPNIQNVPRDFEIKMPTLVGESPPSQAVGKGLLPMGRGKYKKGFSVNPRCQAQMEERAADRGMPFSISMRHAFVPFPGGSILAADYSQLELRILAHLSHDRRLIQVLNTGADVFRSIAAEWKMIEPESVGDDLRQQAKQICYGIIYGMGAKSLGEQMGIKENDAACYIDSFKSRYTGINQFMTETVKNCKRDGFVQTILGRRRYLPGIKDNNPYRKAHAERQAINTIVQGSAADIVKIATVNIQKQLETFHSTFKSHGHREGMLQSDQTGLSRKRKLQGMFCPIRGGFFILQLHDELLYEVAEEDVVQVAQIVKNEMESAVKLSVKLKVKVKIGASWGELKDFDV
Effect on: enzyme activity
Mode: inhibitor
Tested at: 77 µM
Relative to: untreated
Measurement: remaining activity
C[C@H]1CC[C@]2(NC1)O[C@H]1C[C@H]3[C@@H]4CC[C@H]5C[C@@H](O)CC[C@]5(C)[C@H]4CC[C@]3(C)[C@H]1[C@@H]2C: 109%
N#C/C(=C\c1ccc(O)c(O)c1)C(N)=S: 92.3%
O=C(NCNC(=O)NC1C(=O)NC(=O)N1CO)NC1C(=O)NC(=O)N1CO (centres unmarked): 97.4%
Cc1c(N)nc([C@H](CC(N)=O)NC[C@H](N)C(N)=O)nc1C(=O)N[C@H](C(=O)N[C@H](C)[C@@H](O)[C@H](C)C(=O)N[C@H](C(=O)NCCc1nc(-c2nc(C(=O)NCCC[S+](C)C)cs2)cs1)[C@@H](C)O)[C@@H](O[C@@H]1O[C@@H](CO)[C@@H](O)[C@H](O)[C@@H]1O[C@H]1O[C@H](CO)[C@@H](O)[C@H](OC(N)=O)[C@@H]1O)c1cnc[nH]1: 89.3%
CC(Cc1ccc(O)cc1)NCC(O)c1cc(O)cc(O)c1 (centres unmarked): 101%
CN[C@@H]1C[C@H]2O[C@@](C)([C@@H]1OC)n1c3ccccc3c3c4c(c5c6ccccc6n2c5c31)C(=O)NC4: 96.3% and 93.4% and 101%
C[C@@H]1O[C@H](C[N+](C)(C)C)C[C@H]1O: 100%
Oc1ccc2c3c1O[C@H]1c4[nH]c5c(c4C[C@@]4(O)[C@@H](C2)N(CC2CC2)CC[C@]314)C[C@@]1(O)[C@H]2Cc3ccc(O)c4c3[C@@]1(CCN2CC1CC1)[C@H]5O4: 105%

Study 2
SMILES: CCC(=O)N[C@H]1CC[C@@H](C(=O)N(C)c2ccc(-c3nc4ccccc4o3)cc2)C1
Effect on: binding
Technique: radioligand binding
Tested at: 10 µM
Measurement: inhibition
OPRK1 (Homo sapiens, UniProt P41145): -6.54%
DRD5 (Homo sapiens, UniProt P21918): -9.45%
CHRM3 (Homo sapiens, UniProt P20309): -14.8%
OPRM1 (Homo sapiens, UniProt P35372): 10.3%
SLC6A2 (Homo sapiens, UniProt P23975): 2.94%
SLC6A4 (Homo sapiens, UniProt P31645): 32.8%

Study 3
Organism: Sarcocystis neurona
Effect on: parasite activity
Tested at: 10 µM
Time: 96 h
Measurement: activity class
CNC1=Nc2ccc(Cl)cc2C(c2ccccc2)=[N+]([O-])C1: inactive
C[C@]12Cc3c[nH]nc3C[C@@H]1CC[C@@H]1[C@@H]2CC[C@@]2(C)[C@H]1CC[C@]2(C)O: inactive
CCOC(=O)C1(c2ccccc2)CCN(CCC(C#N)(c2ccccc2)c2ccccc2)CC1: inactive
Cc1ccc(-c2nc3ccc(C)cn3c2CC(=O)N(C)C)cc1: inactive
C[C@]12CCC(=O)C[C@@H]1CC[C@@H]1[C@@H]2CC[C@@]2(C)[C@H]1CC[C@]2(C)O: inactive
CC(C)CC(N(C)C)C1(c2ccc(Cl)cc2)CCC1 (centres unmarked): inactive

Study 4
Target: Bromodomain-containing protein 4, BD1 (BRD4, Homo sapiens, UniProt O60885)
Tested at: 50 µM
Measurement: inhibition
C[C@]12O[C@H](C[C@]1(O)CO)n1c3ccccc3c3c4c(c5c6ccccc6n2c5c31)CNC4=O: 18.9%
COc1ccc2c(c[n+](C)c3c4cc5c(cc4ccc23)OCO5)c1OC: 19.9%
C=CCN(/C=C1/C(=O)O[C@H](COC)[C@@]2(C)C1=C(O)C(=O)C1=C2[C@H](OC(C)=O)C[C@]2(C)C(=O)CC[C@@H]12)CC=C: 1.55%

A few entries again (study 3):
Cc1ccc(-c2nc3ccc(C)cn3c2CC(=O)N(C)C)cc1: inactive
C[C@]12CCC(=O)C[C@@H]1CC[C@@H]1[C@@H]2CC[C@@]2(C)[C@H]1CC[C@]2(C)O: inactive
